{"data": "Earlier results as cited in several papers", "chain of UniProt Q14680 (whole entry, looked up)": "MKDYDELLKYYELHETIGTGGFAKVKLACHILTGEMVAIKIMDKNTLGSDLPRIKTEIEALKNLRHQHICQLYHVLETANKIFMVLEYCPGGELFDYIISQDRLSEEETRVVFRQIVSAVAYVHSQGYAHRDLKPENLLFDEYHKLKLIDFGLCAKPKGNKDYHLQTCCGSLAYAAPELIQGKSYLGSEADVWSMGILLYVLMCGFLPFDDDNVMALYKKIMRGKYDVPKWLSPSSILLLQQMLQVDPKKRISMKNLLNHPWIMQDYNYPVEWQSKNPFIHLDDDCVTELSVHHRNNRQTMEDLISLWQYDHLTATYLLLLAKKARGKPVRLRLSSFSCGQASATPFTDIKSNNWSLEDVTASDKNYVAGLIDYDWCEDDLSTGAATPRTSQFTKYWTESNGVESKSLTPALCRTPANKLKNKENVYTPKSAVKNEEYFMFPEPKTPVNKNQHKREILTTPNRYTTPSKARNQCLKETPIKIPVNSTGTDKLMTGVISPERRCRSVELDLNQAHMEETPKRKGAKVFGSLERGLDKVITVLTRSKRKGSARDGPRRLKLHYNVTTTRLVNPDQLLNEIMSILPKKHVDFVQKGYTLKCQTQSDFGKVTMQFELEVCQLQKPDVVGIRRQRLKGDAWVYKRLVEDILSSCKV"}
{"SMILES": "O=C(O)c1[nH]c2ccccc2c1C1NCCc2ccccc21 (centres unmarked)", "target or system": "Staphylococcus aureus", "read-out": "efflux pump inhibition", "strain": "ATCC 25923", "tested at": "50 µM", "baseline": "untreated cells", "measurement": "relative fluorescence index", "result": -0.14}
{"SMILES": "O=C1O[C@H]2[C@@H]3OC(=O)c4cc(O)c(O)c(O)c4-c4c(O)c(O)c5oc(=O)c6c(c(O)c(O)c7oc(=O)c4c5c76)-c4c(cc(O)c(O)c4O)C(=O)OC[C@H]3OC(O)[C@@H]2OC(=O)c2cc(O)c(O)c(O)c2-c2c1cc(O)c(O)c2O (mixture of isomers)", "target or system": "Staphylococcus aureus", "measurement": "MIC", "result": "250 µg/mL"}
{"SMILES": "Oc1ccc(-c2nc(-c3ccc(OC4CCCC4)cc3)no2)cc1", "target or system": "Staphylococcus aureus", "strain": "NRS100", "measurement": "MIC", "result": "2 to 4 µg/mL"}
{"SMILES": "CS(=O)(=O)c1ccc([C@@H](O)[C@@H](CF)NC(=O)C(Cl)Cl)cc1", "target or system": "Staphylococcus aureus", "measurement": "MIC", "result": "64 µg/mL"}
{"SMILES": "Oc1ccc(-c2nc(-c3ccc(OC4CCCC4)cc3)no2)cc1", "target or system": "Staphylococcus aureus", "strain": "NRS119 linezolid-resistant", "measurement": "MIC", "result": "1 to 2 µg/mL"}
{"SMILES": "O=C(O)[C@H]1O[C@@H](Oc2c(O)cc(O)c3c(=O)c(O)c(-c4ccc(O)c(O)c4)oc23)[C@H](O)[C@@H](O)[C@@H]1O", "target or system": "Staphylococcus aureus", "measurement": "MIC", "result": "512 µg/mL"}
{"SMILES": "COc1cc2c(cc1OC)C(c1c[nH]c3ncccc13)NCC2 (centres unmarked)", "target or system": "Staphylococcus aureus", "read-out": "efflux pump inhibition", "strain": "ATCC 25923", "tested at": "50 µM", "baseline": "untreated cells", "measurement": "relative fluorescence index", "result": 0.3}
{"SMILES": "O=C(N[C@H](CO)[C@H](O)c1ccc([N+](=O)[O-])cc1)C(Cl)Cl", "target or system": "Staphylococcus aureus", "measurement": "MIC", "result": "≥ 3.1 µg/mL"}
{"SMILES": "Nc1cc(C(F)(F)F)c(-c2nc(N3CCOCC3)nc(N3CCOCC3)n2)cn1", "target or system": "Maternal embryonic leucine zipper kinase (MELK, Homo sapiens, UniProt Q14680)", "read-out": "enzyme activity", "tested at": "10 µM", "baseline": "untreated", "measurement": "remaining activity", "result": "64%"}
{"SMILES": "NC[C@H]1O[C@H](O[C@H]2[C@H](O)[C@@H](O[C@H]3O[C@H](CO)[C@@H](O)[C@H](N)[C@H]3O)[C@H](N)C[C@@H]2N)[C@H](O)[C@@H](O)[C@@H]1O", "target or system": "Staphylococcus aureus", "measurement": "MIC", "result": "8 µg/mL"}
{"SMILES": "CCOC(=O)C(c1ccc2ccccc2c1O)N1CCOCC1 (centres unmarked)", "target or system": "Staphylococcus aureus", "read-out": "efflux pump inhibition", "strain": "ATCC 25923", "tested at": "50 µM", "baseline": "untreated cells", "measurement": "relative fluorescence index", "result": -0.58}
{"SMILES": "CC1(C)S[C@@H]2[C@H](NC(=O)[C@H](N)c3ccccc3)C(=O)N2[C@H]1C(=O)O", "target or system": "Staphylococcus aureus", "measurement": "MIC", "result": "0.02 to 25 µg/mL"}
{"SMILES": "c1ccc2c(c1)CCNC2c1c[nH]c2ccccc12 (centres unmarked)", "target or system": "Staphylococcus aureus", "read-out": "efflux pump inhibition", "strain": "ATCC 25923", "tested at": "50 µM", "baseline": "untreated cells", "measurement": "relative fluorescence index", "result": -0.18}
{"SMILES": "COc1ccc2cc3[n+](cc2c1OC)CCc1cc2c(cc1-3)OCO2", "target or system": "Staphylococcus aureus", "measurement": "MIC", "result": "128 µg/mL"}
{"note": "Repeated from above:"}
{"SMILES": "c1ccc2c(c1)CCNC2c1c[nH]c2ccccc12 (centres unmarked)", "target or system": "Staphylococcus aureus", "read-out": "efflux pump inhibition", "strain": "ATCC 25923", "tested at": "50 µM", "baseline": "untreated cells", "measurement": "relative fluorescence index", "result": -0.18}
